{"data": "Published values from different studies", "method": "steady-state kinetics", "B1": "Kmo (Rattus norvegicus, UniProt O88867); chain MASSDTEGKRVVVIGGGLVGALNACFLAKRNFQVDVYEAREDIRVANFMRGRSINLALSYRGRQALKAVGLEDQIVSKGVPMKARMIHSLSGKKSAIPYGNKSQYILSISREKLNKDLLTAVESYPNAKVHFGHKLSKCCPEEGILTMLGPNKVPRDITCDLIVGCDGAYSTVRAHLMKKPRFDYSQQYIPHGYMELTIPPKNGEYAMEPNCLHIWPRNAFMMIALPNMDKSFTCTLFMSFEEFEKLPTHSDVLDFFQKNFPDAIPLMGEQALMRDFFLLPAQPMISVKCSPFHLKSRCVLMGDAAHAIVPFFGQGMNAGFEDCLVFDELMDKFNNDLSVCLPEFSRFRIPDDHAISDLSMYNYIEMRAHVNSRWFLFQRLLDKFLHALMPSTFIPLYTMVAFTRIRYHEAVLRWHWQKKVINRGLFVLGSLVAIGSAYILVHHLSPRPLELLRSAWTGTSGHWNRSADISPRVPWSH", "B2": "Msrb2 C98S (Mus musculus, UniProt Q78J03); chain ADWQKKLTPEQFYVTREKGTEAPFSGMYLNNKETGMYHCVCCDSPLFSSEKKYSSGTGWPSFSEAYGSKGSDESHTGILRRLDTSLGCPRMEVVCKQCEAHLGHVFPDGPKPTGQRFCINSVALKFKPSKP", "B3": "curN (Lyngbya majuscula, UniProt Q6DND9); chain AGVPVAGRAQSQPPLQLPISSEFPFAKRTVEVEGATIAYVDEGSGQPVLFLHGNPTSSYLWRNIIPYVVAAGYRAVAPDLIGMGDSAKPDIEYRLQDHVAYMDGFIDALGLDDMVLVIHDWGSVIGMRHARLNPDRVAAVAFMEALVPPALPMPSYEAMGPQLGPLFRDLRTADVGEKMVLDGNFFVETILPEMGVVRSLSEAEMAAYRAPFPTRQSRLPTLQWPREVPIGGEPAFAEAEVLKNGEWLMASPIPKLLFHAEPGALAPKPVVDYLSENVPNLEVRFVGAGTHFLQEDHPHLIGQGIADWLRRNKPHAS", "B4": "TENT2 (Homo sapiens, UniProt Q6PIY7); chain MFPNSILGRPPFTPNHQQHNNFFTLSPTVYSHQQLIDAQFNFQNADLSRAVSLQQLTYGNVSPIQTSASPLFRGRKRLSDEKNLPLDGKRQRFHSPHQEPTVVNQIVPLSGERRYSMPPLFHTHYVPDIVRCVPPFREIAFLEPREITLPEAKDKLSQQILELFETCQQQISDLKKKELCRTQLQREIQLLFPQSRLFLVGSSLNGFGTRSSDGDLCLVVKEEPCFFQVNQKTEARHILTLVHKHFCTRLSGYIERPQLIRAKVPIVKFRDKVSCVEFDLNVNNIVGIRNTFLLRTYAYLENRVRPLVLVIKKWASHHQINDASRGTLSSYSLVLMVLHYLQTLPEPILPSLQKIYPESFSPAIQLHLVHQAPCNVPPYLSKNESNLGDLLLGFLKYYATEFDWNSQMISVREAKAIPRPDGIEWRNKYICVEEPFDGTNTARAVHEKQKFDMIKDQFLKSWHRLKNKRDLNSILPVRAAVLKR", "B5": "protein (Thermotoga neapolitana, UniProt B9K712); chain MKMLYDLAKKRKTVRRFKKEKPPLEDLIYSLKVANEAPSGMNAQPWRFLIVEDEKLKGQIRRVCERSEKTFYENVRGRLKEWLDEKRFTWRKPFLKEAPYLLLVFSEKSAPYSRESVWLAVGYLLLALEEKGLGSVPYTPPDFREVEKLVNTPSELRLEVILPVGYPDDPKPKYPRNEVIVRYNTF", "B6": "DTYMK (Homo sapiens, UniProt P23919); chain MAARRGALIVLEGVDRAGKSTQSRKLVEALCAAGHRAELLRFPERSTEIGKLLSSYLQKKSDVEDHSVHLLFSANRWEQVPLIKEKLSQGVTLVVDRYAFSGVAFTGAKENFSLDWCKQPDVGLPKPDLVLFLQLQLADAAKRGAFGHERYENGAFQERALRCFHQLMKDTTLNWKMVDASKSIEAVHEDIRVLSEDAIRTATEKPLGELWK", "B7": "SLC15A1 (Homo sapiens, UniProt P46059); chain MGMSKSHSFFGYPLSIFFIVVNEFCERFSYYGMRAILILYFTNFISWDDNLSTAIYHTFVALCYLTPILGALIADSWLGKFKTIVSLSIVYTIGQAVTSVSSINDLTDHNHDGTPDSLPVHVVLSLIGLALIALGTGGIKPCVSAFGGDQFEEGQEKQRNRFFSIFYLAINAGSLLSTIITPMLRVQQCGIHSKQACYPLAFGVPAALMAVALIVFVLGSGMYKKFKPQGNIMGKVAKCIGFAIKNRFRHRSKAFPKREHWLDWAKEKYDERLISQIKMVTRVMFLYIPLPMFWALFDQQGSRWTLQATTMSGKIGALEIQPDQMQTVNAILIVIMVPIFDAVLYPLIAKCGFNFTSLKKMAVGMVLASMAFVVAAIVQVEIDKTLPVFPKGNEVQIKVLNIGNNTMNISLPGEMVTLGPMSQTNAFMTFDVNKLTRINISSPGSPVTAVTDDFKQGQRHTLLVWAPNHYQVVKDGLNQKPEKGENGIRFVNTFNELITITMSGKVYANISSYNASTYQFFPSGIKGFTISSTEIPPQCQPNFNTFYLEFGSAYTYIVQRKNDSCPEVKVFEDISANTVNMALQIPQYFLLTCGEVVFSVTGLEFSYSQAPSNMKSVLQAGWLLTVAVGNIIVLIVAGAGQFSKQWAEYILFAALLLVVCVIFAIMARFYTYINPAEIEAQFDEDEKKNRLEKSNPYFMSGANSQKQM", "note": "Each line is one published result; not all experiments were run side by side."}
{"Substance": "B1 (Kmo)", "substrate": "Nc1ccccc1C(=O)CC(N)C(=O)O", "cells": "HEK", "temperature": "37 °C", "setting": "rat Kmo, in cells, apparent, not purified", "Km [µM]": 258}
{"Substance": "B2 (Msrb2 C98S)", "substrate": "CN(C)c1ccc(/N=N/c2ccc(S(=O)(=O)N[C@@H](CC[S@@+](C)[O-])C(=O)O)cc2)cc1", "pH": "pH 7.5", "setting": "NaCl 50 mM", "with": "DTT 20 mM", "Km [µM]": 50}
{"Substance": "enzyme (Trypanosoma brucei, UniProt Q57W34)", "substrate": "CC(=O)N[C@H]1[C@H](O[C@H]2[C@H](O)[C@@H](NC(C)=O)[C@@H](OP(=O)(O)OP(=O)(O)OCC[C@@H](C)CC/C=C(/C)CC/C=C(\\C)CC/C=C(\\C)CCC=C(C)C)O[C@@H]2CO)O[C@H](CO)[C@@H](O[C@@H]2O[C@H](CO[C@H]3O[C@H](CO)[C@@H](O)[C@H](O)[C@@H]3O)[C@@H](O)[C@H](O[C@H]3O[C@H](CO)[C@@H](O)[C@H](O)[C@@H]3O)[C@@H]2O)[C@@H]1O", "pH": "pH 7.5", "Km [µM]": 18.8}
{"Substance": "enzyme (Astragalus mongholicus, UniProt A0A977WLP2)", "substrate": "CC(C)(O)[C@@H]1CC[C@](C)([C@H]2[C@@H](O)C[C@@]3(C)[C@@H]4C[C@H](O[C@@H]5O[C@H](CO)[C@@H](O)[C@H](O)[C@H]5O)[C@H]5C(C)(C)[C@@H](O)CC[C@@]56C[C@@]46CC[C@]23C)O1", "pH": "pH 8", "temperature": "35 °C", "Km [µM]": 109}
{"Substance": "B3 (curN)", "substrate": "CC1=[N+]2C(=C(CCl)c3ccc(C)n3[B-]2(F)F)C=C1", "pH": "pH 8", "temperature": "30 °C", "Km [µM]": 0.23}
{"Substance": "B4 (TENT2)", "substrate": "Nc1ncnc2c1ncn2[C@@H]1O[C@H](COP(=O)(O)OP(=O)(O)OP(=O)(O)O)[C@@H](O)[C@H]1O", "pH": "pH 8", "temperature": "37 °C", "with": "Mg2+", "Km [µM]": 0.229}
{"Substance": "B5 (protein)", "substrate": "N[C@@H](Cc1ccc(O)c(I)c1)C(=O)O", "pH": "pH 7.4", "temperature": "60 °C", "Km [µM]": 3.5}
{"Substance": "B6 (DTYMK)", "substrate": "Cc1cn([C@H]2C[C@H](O)[C@@H](COP(=O)(O)O)O2)c(=O)[nH]c1=O", "with": "ATP 2 mM, Mg2+ 2 mM", "Km [µM]": 20}
{"Substance": "B7 (SLC15A1)", "substrate": "CCC(CC)[C@H](NC(C)=O)[C@@H]1[C@H](O)[C@@H](C(=O)OCCOC(=O)[C@@H](N)C(C)C)C[C@H]1NC(=N)N", "pH": "pH 6", "setting": "not purified", "Km [µM]": 4230}
{"Substance": "enzyme (UniProt A0A2P1BT29)", "substrate": "C=C1OC(=O)C(C(=O)CC[C@H](C)C(=O)/C=C/C=C/C(C)=C/C)=C1O", "pH": "pH 8", "temperature": "30 °C", "Km [µM]": 51.2}
{"note": "A few entries again:"}
{"Substance": "B3 (curN)", "substrate": "CC1=[N+]2C(=C(CCl)c3ccc(C)n3[B-]2(F)F)C=C1", "pH": "pH 8", "temperature": "30 °C", "Km [µM]": 0.23}
{"Substance": "B4 (TENT2)", "substrate": "Nc1ncnc2c1ncn2[C@@H]1O[C@H](COP(=O)(O)OP(=O)(O)OP(=O)(O)O)[C@@H](O)[C@H]1O", "pH": "pH 8", "temperature": "37 °C", "with": "Mg2+", "Km [µM]": 0.229}
